Measured values collected from several papers.
Numbered parts are unrelated; each lists some results of a single study.

Set 1 — Molecule: RRRRLLFWDKETQI; form: peptide; reading: direction not given
| tested on | assay | system | conditions | enrichment score |
| --- | --- | --- | --- | --- |
| – | peptide binding | yeast competitive growth | added: B1-Cln2 chimera | -0.729 |
| Saccharomyces cerevisiae | binding, competitive growth deep sequencing | cyclin E1-Cln2 fusion strain | peptide tiling library | -0.929 |
| Saccharomyces cerevisiae | cell growth, competitive growth deep sequencing | – | peptide tiling library, added: cyclin E2-Cln2 fusion | -2.01 |
| Saccharomyces cerevisiae | mating pheromone growth arrest, pooled competitive growth deep sequencing | no Cln2 overexpression | peptide tiling library | -0.145 |
| human cyclin A2 | competitive growth deep sequencing | Saccharomyces cerevisiae, cyclin A2-Cln2 fusion strain | peptide tiling library | 0.00532 |
| Cln2 (Saccharomyces cerevisiae) | peptide binding, competitive growth sequencing | Saccharomyces cerevisiae, unfused Cln2 strain | peptide tiling library | -1.76 |

Set 2 — technique: RNA Bind-n-Seq; form: RNA; medium: in vitro; concentration: 100 nM; baseline: input RNA pool; reading: higher = stronger binding
Target: RING finger protein unkempt homolog, zinc fingers 1-6, SBP tag (UNK, Homo sapiens, UniProt Q9C0B0, residues 30-357)
Sequence of UniProt Q9C0B0 (30-357, looked up): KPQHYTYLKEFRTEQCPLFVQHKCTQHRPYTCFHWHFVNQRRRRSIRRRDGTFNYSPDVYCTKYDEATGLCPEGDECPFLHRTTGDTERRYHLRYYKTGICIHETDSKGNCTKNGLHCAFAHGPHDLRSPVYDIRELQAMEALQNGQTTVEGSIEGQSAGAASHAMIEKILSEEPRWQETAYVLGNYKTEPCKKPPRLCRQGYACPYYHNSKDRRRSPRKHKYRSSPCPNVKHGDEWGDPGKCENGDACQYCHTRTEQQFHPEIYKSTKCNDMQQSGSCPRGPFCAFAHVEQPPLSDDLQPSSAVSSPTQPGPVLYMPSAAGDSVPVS
Setting: RNA with constant flanks, vertebrate orthologous sites, ends assumed
All sequences stand within: GGGAGUUCUACAGUCCGACGAUC … CAACAGAGGAUUGAGCAUCA
| Sequence | bound/input enrichment [ratio] |
| --- | --- |
| GUGACUUUGGACGUCCGCUCAGCCGGGUUGCAGAAGCUGUUUGGUGCCUGUCGUGCGCUCGUUCUCCCGUCUCUGGAGGUAGGCCUCUGCCGCAAACAUGCUCCGCCAGAUCCUCGGGCA | 0.341 |
| UAUUAGUGUCGUACCAGCCUAUUAACCUCUCGUCUGUGCACAGCUUCAAAUGUUACCGUCUAGUUAGAUUUUUAUUUAAAAUAUGAAAAACUGCUUUUCCCAAGACGUUUUUUAGAAACA | 1.59 |
| GCUCUAGUCCUUAAGAACCAACACUCCUAAAAGAUUUAGAAAAAAGUUUACAACAUAAUCUAGUUUACGAAGAAGCCUUGUGCUAGAAUACUUUUUAAAAAGUAUUUUUGAAUACCAUUA | 1.16 |
| GCCUGUGCUUAUACUCUUCUGAGGAAGAGACAAAUUGGGGAAAACUGUCUCCUUUUUAUAGUUUCCUUCUAAAUUAUGACCAGAAGAUAUUUUGCUAUUUCUUUCUUUAUAUAUGGACUU | 0.483 |
| ACAUGUCUAUUGUGGCAUAUAGUCAACAUGGAAGUAGACCAGCUCUGCUGAUUUGAAAUUUAGAUUUUUUUAAUUAUGUACUGGGGACAGGUUUUUGUCGCUUUACAUUGCUUCCUAGUU | 4.21 |
| UGUCCUUUCUUACUGUCCCCAGCCAGGGCCGGGGACCGGUGUUUCACUGAGGACCUGCAUUAGAAACAUUUUUAAAAUUGUUGUACAGGAAGAGAUGUGUCUAAAACAGCAUCUUAAAGC | 0.845 |
| GGGCUGUGUAGAGUAGGGCUGUGUUCUUCUUAGGAUGUUGCUUCUUGAUUUUCUUUUUUUAAGGGGUGGGUCAGGGUUGUGACACACCAGCCCAGGCAAGAGCUGCUGCGGGUCACCUCA | 1.34 |
| UCCAAGCACCCUGGUCAAGACUGUGGACUGGCUGCUUGUAUUCUCCUUAUUCUUUUUAAUUAGUUUCAUUAUGUAUGCUACCAUCCGGACUGAGAGCAUUCGGUGGCUGAUUCCGGGGCA | 3.3 |
| CUCCCUCCCAGGACUGAGCAGUGGGGCCUGGGCCCACUGGCCACAUCAGCCAGGCCAUUUUAGCUCUUUUCUUUUUUUUAAACAGUGCCCUUGUUAUCCUGUAUAUAAGUGGAGAUUUGG | 1.42 |
| GGUUGAUGUUCUGAAGAACCACUUGGUAAAAGAAGGUCGGGUAGAUGAAGAAAUUGCACUUAGAAUUAUCAAUGAGGGUGCUGCCAUCCUUCGGAGAGAGAAAACCAUGAUAGAAGUAGA | 0.427 |
| GCACAUGCCGCUAUCACCAAAAGCAAAUUGCCAUUUUUCAAAUUUCAUCCAGAGCCGUUUUAGUGUUUUCCUAUUCCCUGCCCUUCCCAUUACUUUCAGUGAUGAAAGUUCUCCUCUGAC | 2.22 |

Set 3 — technique: RNA Bind-n-Seq; form: RNA; medium: in vitro; concentration: 365 nM; baseline: no-protein control; reading: higher = stronger binding
Target: RNA binding protein fox-1 homolog 2, RRM domain, GST-SBP tag (RBFOX2, Homo sapiens, UniProt O43251-10, residues 100-194)
Setting: natural RNA segment, single round, ends assumed
All sequences stand within: GGGAGUUCUACAGUCCGACGAUC … UGGAAUUCUCGGGUGCCAA
Target sequence (chain): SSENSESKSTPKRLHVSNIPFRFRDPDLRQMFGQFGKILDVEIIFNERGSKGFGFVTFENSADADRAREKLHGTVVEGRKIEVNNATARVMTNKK
| Sequence | RBNS enrichment (R) |
| --- | --- |
| AAGCAAAAAACAAACAAACAUAGUGGGCCCUCGUCUAGAUCAUGAUGUGCCAGUUUCUGAGACAUCUUUUUAAGGCUCUUACUGCAGCUCCCCUCCCCACCCUCCUCUUC | 0.265 |
| GUGUGGUGGCGCAUGCCUGUAAUCCCAGCUACUUGGGAGACUGAGGCAAGAGAAUCACUUGAACCCGGGAGGUGGAGGUGGCAGUGAGCCGAGAUUGCGCCAUUGCACUC | 2.17 |
| GCAAUGAUCCAGUCUAAAGUAGAACCUCAAUUUAAAAGAUUGAGGUUCAGAGCAUCAACACUCCAUACACCUCCCCAAGUCAGCCAUAGACUGUUUUUUUUUUCAGAAGU | 0.416 |
| GGGGAGGGAACAUACCACCCAGCCAGGCUUAGCAUUGGGUUUUAUCCUUUAAUAAAAGUUUUAUAAUGAAUCCUGUUCACCUUAAAGUGUGAUUAUGGAGAUGAUUGGCU | 0.468 |
| CCUGGUAGAAACUAUUUCUGUUCCAGUCACAUUGCCAUCACUCUUGUACUGCCUGCCACCGCGGAGGAGGCUGGUGACAGGCCAAAGGCCAGUGGAAGAAACACCCUUUC | 0.502 |
| CUCUCAGAAACAGGGCUCAGUACAGAACUUCCACAGCUGAUCAGCCUCCCUUGCAGGUUUGCCAAGUAUCUGCUUCCUGUGGAAGCAAGACCAAAAGGAAACCAACCGAG | 0.264 |
| UGGCCAGGGGGUGUGAUAACAAAUUGUCCUCAAGUAUCCCAUGUAAUUUUUAUUUAAACCCUUGCACUUCUCAGUGCCUGGCAGCUGCAAGGGUCCCAGCUGCCCCGAGG | 0.924 |
| UUUUUGUCCUUGCAGACAGAAUAUAAAAACUCCUGGGCUUAAGGCCUAAGGAAGCCAGUCACCUUCUGGGCAAGGGCUCCUAUCUUUCCUCCCUAUCCAUGGCACUAAAC | 0.518 |
| AGGUUGCAGUGAGCUGAGAUUGCACCACUGUACUCCAACCUGGGCGACAGAGCAAGACUGUGUCUCAAAAAGAAAAAAAUUUGUUCAAAAGACAUAAAUGAAUUAGGCAC | 0.492 |
| UUCUGGGCUGAUGGGUGCCCUUUCCUGGCAGUCUCAGUCCAAAAGUGUUGACUGUGUCAUUAGUCCUUUGUCUAAGUAGGGCCAGGGCACCGUAUUCCUCUCCCAGGUGU | 0.255 |
| UUAAGGGUUAAAUCACUUUUGCUUGUGUUUAUUACUGCUUGAGGUUGAGCCUUUUGAGUAUUUAAAAAAUAUAUACCAACAGAACUACUCUCCCAAGGAAAAUAUUGCCA | 0.437 |
| CUUCAGCAUGGAGAGGACACCGUGCCCCAGGGGCCUGAGUCUCAGGCAGAGUCCAUCCCAAUAAUAGUAACUCCUGCUCCUGAAAGCAUCCUACAUUCUGACCUUCAAAG | 0.886 |

Set 4 — technique: protein binding microarray; form: double-stranded DNA, one strand shown; medium: in vitro; concentration: not given; baseline: not given; reading: higher = stronger binding
Target: Histone acetyltransferase KAT6A, both winged helices, GST fusion (KAT6A, Homo sapiens, UniProt Q92794, residues 1-181)
Setting: 8-mer, flanks averaged, mean of 2 arrays, mostly near background
Residues (chain): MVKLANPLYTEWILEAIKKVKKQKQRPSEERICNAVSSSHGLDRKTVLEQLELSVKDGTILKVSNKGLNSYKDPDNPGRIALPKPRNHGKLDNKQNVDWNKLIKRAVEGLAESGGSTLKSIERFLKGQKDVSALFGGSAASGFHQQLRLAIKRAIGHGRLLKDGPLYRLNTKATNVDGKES
| Sequence | E-score |
| --- | --- |
| AGAAGGAG | -0.124 |
| AACACCGT | 0.217 |
| CCCTGGAA | -0.118 |
| AGACTCAG | -0.0822 |
| AGACCAGA | -0.165 |
| GAGGTTAC | 0.0128 |
| AGATAATA | -0.0886 |
| AACCTTGC | -0.0221 |
| CTTAGTCC | -0.0784 |
| AAGGATGC | -0.16 |
| GGTTACAC | -0.0165 |
| ACGAGGCA | -0.136 |
| ATCAGTAA | -0.0764 |
| ATCCACAC | -0.302 |
| CCTTAAAG | -0.175 |
| AAACTCGT | -0.0148 |
| ACGCCGGC | 0.363 |
| GTGGGCTA | -0.233 |
| CAGTTGGC | -0.0446 |
| AATTCGGA | 0.0742 |
| AACTGAGT | -0.102 |
| ATACTGTG | -0.157 |
| CCCCACCA | -0.177 |
| AGTGGTTG | -0.189 |

Set 5 — technique: protein-binding microarray; form: double-stranded DNA, one strand shown; medium: in vitro; concentration: 250 nM; setting: 60-bp whole probe; added: salmon DNA 0.4 mg/ml; baseline: random background probes; reading: higher = stronger binding; all sequences stand within: GCCTAGCAC … GTCTTGATTCGCTTGACGCTGCTG
Target: Interferon regulatory factor 7, full length, phosphomimetic (IRF7, Homo sapiens, UniProt Q92985, residues 1-503, S101K/S471D/S472D/S475D/S476D/S477D/S483D/S484D/S487D)
Construct (chain): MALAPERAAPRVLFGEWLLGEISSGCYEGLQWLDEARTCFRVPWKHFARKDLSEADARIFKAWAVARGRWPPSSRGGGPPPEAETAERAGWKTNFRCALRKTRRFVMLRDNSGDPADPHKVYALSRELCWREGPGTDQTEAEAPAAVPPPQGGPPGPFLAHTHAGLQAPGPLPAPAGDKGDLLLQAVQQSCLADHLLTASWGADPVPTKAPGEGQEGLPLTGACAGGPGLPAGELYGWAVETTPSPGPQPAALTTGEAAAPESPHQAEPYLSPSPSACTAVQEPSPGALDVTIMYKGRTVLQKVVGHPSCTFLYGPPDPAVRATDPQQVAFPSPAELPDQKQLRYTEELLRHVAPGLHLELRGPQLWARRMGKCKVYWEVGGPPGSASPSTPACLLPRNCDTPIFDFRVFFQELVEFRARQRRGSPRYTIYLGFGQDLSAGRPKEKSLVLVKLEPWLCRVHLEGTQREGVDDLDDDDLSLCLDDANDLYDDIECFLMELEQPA
| Sequence | log fluorescence [z-score] |
| --- | --- |
| TTCTGGTTCCCATTCCAGGGGTGCTAG | 1.97 |
| TCACTGCTACCCTTTGAAACTGTGCTA | -0.642 |
| TTAGGCCTGGGGTTTCGGTTAGTGCTA | 4.37 |
| TTAGGACTGCTACTGCTTAAGTGCTAG | -0.724 |
| GACTGTCTCGGTTTCGGGACGTGCTAG | 5.33 |
| TTAGATTTCAGTTTCGACTAGTGCTAG | 4.97 |
| GACGATCTGAGACTGGAGACGTGCTAG | -0.239 |
| TTAGAACGGAGACTGGATTAGTGCTAG | -0.273 |
| AAATATTTACCTCTCACGCAGTGCTAG | -0.0249 |
| GACGGTCTCATTCTCCTGACGTGCTAG | 0.575 |
| TTAGGTATCGGTTTCGGTTGGTGCTAG | 10.7 |
| TCAAGAATCACAACTAGGACTGTGCTA | 0.0764 |
| TTAGATATCAGTTTCGATCAGTGCTAG | 3.93 |
| GATGATATCAGTATCGAGACGTGCTAG | -0.168 |
| GACGAAGTGGGGTTTCGAGACGTGCTA | 1.7 |
| GACGGTCTCCTTCTCCTAACGTGCTAG | 0.367 |
| TCATTTCTAAAACTCTTACTGTGCTAG | 1.46 |
